Results pooled from the literature.
Compare with care: the assays were run in different laboratories. “And” joins repeats or separate records; there may be more than shown.
Target: MAP/microtubule affinity-regulating kinase 3 (MARK3, Homo sapiens, UniProt P27448)

CNC1C[S+]2CC[S+]3CC[S+](C1)[Ru-4]321([N]=C=S)[n]2c3ccc(OC)cc3c3c4c(c5cc(F)c[n+]1c5c32)C(=O)NC4=O (stereo not shown)  remaining binding (KinomeScan; 0.1 µM; baseline: untreated): 61%
COCC12C(=O)NC3C4(C(OC)CC1O)C1CC5(O)C(OC)C(O)C(OC(C)=O)(C1C5OC(=O)c1ccccc1)C3(O)C(OC)C24 (stereo not shown)  remaining activity (kinase activity, inhibitor, ProQinase kinase profiling; 25 µM; baseline: control): 91% and 84%
CC(=O)N1c2ccc(-c3ccc(CNC(=O)c4cn5cc(-c6cnc(N)nc6)nc(N6CCOCC6)c5n4)cc3)cc2CC[C@@H]1C  remaining binding (KINOMEscan; 10 µM): 92%
CCn1cc(C(=O)O)c(=O)c2c(N)c(F)c(NC3CCCCC3)cc21  inhibition (kinase activity; 0.1 µM, together with: ATP at Km): -7.4%
NC(=O)[C@@H](O)C[C@H]1CCc2sc3ncnc(O[C@H]4CC[C@H](N5CCOCC5)CC4)c3c21  inhibition (enzyme activity, inhibitor; 10 µM): 7%
C=CC(=O)N1Cc2nc(-c3cc(-c4cc(Cl)cnc4Cl)c(F)cc3F)n(-c3ccncn3)c2C1  inhibition (cell-free assay, inhibitor; 1 µM): 8.6%
Cc1cccc(-c2ccc3nc(NC(=O)C4CCCCC4)nn3c2)c1  remaining activity (enzyme activity, Dundee kinase panel; 10 µM): 91%
CN1CCN(Cc2ccc(NC(=O)c3cccc(C#Cc4cnc(N)c5ncccc45)c3)cc2C(F)(F)F)CC1  remaining binding (cell-free assay, competition with immobilised ligand; 0.5 µM): 75%
C=CC(=O)N1CCCC(n2c(=O)c3ncccc3n(Cc3ccc(Oc4ccccc4)cc3)c2=O)C1 (stereo not shown)  remaining binding (cell-free assay, competition with immobilised ligand; 1 µM): 100%
COc1c(Cl)cccc1Nc1c(-c2ccncc2C#C[C@@]2(C)CCCN2C(=O)/C=C/CN(C)C)[nH]c2c1C(=O)NCC2  remaining binding (binding, competition with immobilised ligand; 3 µM): 93%
C=CC(=O)Nc1cccc(-c2cnc3[nH]cc(C(=O)NC(C)(C)C)c3n2)c1  inhibition (enzyme activity, inhibitor; 0.1 µM): 48%
c1ccc2c(Nc3cc(C4CCC4)[nH]n3)nc(Nc3ccc4nc[nH]c4c3)nc2c1  remaining activity (enzyme activity, inhibitor; 0.25 µM): 2%
Cc1cccc(O[C@H]2CCC[C@@H](C(C)CNCc3ccncc3)C2)c1 (relative stereo)  inhibition (enzyme activity, inhibitor; 10 µM): 0%
Cc1cccc(-c2ccc3nc(NC(=O)C4CCCO4)nn3c2)c1 (stereo not shown)  remaining activity (enzyme activity, Dundee kinase panel; 10 µM): 86%
Nc1nc(Nc2ccccc2)sc1C(=O)c1ccccc1  remaining activity (enzyme activity, inhibitor; 10 µM): 34%
CCN1CCN(Cc2ccc(C(=O)Nc3ccc(C)c(NCc4cnc5[nH]ccc5c4OC)c3)cc2C(F)(F)F)CC1  remaining binding (binding, competition with immobilised ligand; 1 µM): 100%
CNC(=O)C[C@H](Cc1ccc(C#N)cc1)NC(=O)c1cc(-c2ccc(CN[C@H](C)c3ccc(C)cc3)o2)ccc1Cl  activity vs control (enzyme activity, inhibitor; 1 µM): 104%
Cc1cnc2nc1Nc1cccc(c1)COC/C=C/COCc1cc(ccc1OCCN1CCOCC1)N2  remaining binding (binding; 0.1 µM): 81%
C=CC(=O)N1CCc2ccc(-n3c(=O)ccc4cnc5ccc(-c6cnn(C)c6)cc5c43)cc21  remaining binding (KINOMEscan; 1 µM; baseline: DMSO control): 100%

Excerpt of the above:
C=CC(=O)N1CCCC(n2c(=O)c3ncccc3n(Cc3ccc(Oc4ccccc4)cc3)c2=O)C1 (stereo not shown)  remaining binding (cell-free assay, competition with immobilised ligand; 1 µM): 100%
CCn1cc(C(=O)O)c(=O)c2c(N)c(F)c(NC3CCCCC3)cc21  inhibition (kinase activity; 0.1 µM, together with: ATP at Km): -7.4%
Cc1cccc(O[C@H]2CCC[C@@H](C(C)CNCc3ccncc3)C2)c1 (relative stereo)  inhibition (enzyme activity, inhibitor; 10 µM): 0%
